Experimental data gathered from unrelated publications.
Protocols differ between the studies behind these lines.
Cell line: CAKI-1

Compound | assay | setting | how to read | quantity | result
NNc1nc(-c2ccc(Cl)cc2)c2c(NC(=O)c3ccccc3)nnc-2[nH]1 | SRB | 10 µM, NCI60 single-dose screen | baseline: untreated | cell growth | 93.8%
O=C1NC(c2ccccc2)(c2ccccc2)C(=O)N1Cc1cn(-c2cc3ccccc3oc2=O)nn1 | NCI60 single-dose screen | 10 µM |  | growth percentage | 97.7%
Cc1n[nH]c2nc(-c3ccc(Cl)cc3)c3c(NC(=O)c4ccccc4)nnc-3n12 | SRB | 10 µM, NCI60 single-dose screen | baseline: untreated | cell growth | 89.1%
CCCN1CCN(c2ccc3[nH]c(-c4ccc5[nH]c(-c6ccc(OCC)c(OCC)c6)nc5c4)nc3c2)CC1 | SRB | 10 µM, 48 h |  | growth percent | -18.9%
Cc1cc(=O)[nH]n1-c1nc(-c2ccc(Cl)cc2)c2c(NC(=O)c3ccccc3)nnc-2[nH]1 | SRB | 10 µM, NCI60 single-dose screen | baseline: untreated | cell growth | 91%
CCCCN1CCN(c2ccc3[nH]c(-c4ccc5[nH]c(-c6cc(OC)c(OC)c(OC)c6)nc5c4)nc3c2)CC1 | SRB | 10 µM, 48 h |  | growth percent | 87.9%
CC(=O)OC[C@H]1O[C@@H]([S-])[C@H](OC(C)=O)[C@@H](OC(C)=O)[C@@H]1OC(C)=O.CCP(CC)CC.[Au+] | cell invasion, 3D Transwell invasion | IC20, 24 h | baseline: untreated | inhibition | 51%
COc1ccc(OC)c(-c2nc3ccc(-c4nc5ccc(N6CCN(C)CC6)cc5[nH]4)cc3[nH]2)c1 | SRB | 10 µM, 48 h |  | growth percent | 106%
CSc1nc(-c2ccc(Cl)cc2)c2c(NC(=O)c3ccccc3)nnc-2[nH]1 | SRB | 10 µM, NCI60 single-dose screen | baseline: untreated | cell growth | 73.2%
COc1cnc2cccc(N3CCc4c(cc(Cn5ccnc5C)cc4-c4cn(C)nc4C(F)(F)F)C3=O)c2c1 | cell growth, inhibitor | 120 h |  | EC50 | 0.0402 µM
Cc1cc(=O)[nH]c(=O)n1Cc1cn(-c2c3ccccc3nc3ccccc23)nn1 | NCI60 single-dose screen | 10 µM |  | growth percentage | 91%
CCCN1CCN(c2ccc3[nH]c(-c4ccc5[nH]c(-c6cc(OC)c(OC)c(OC)c6)nc5c4)nc3c2)CC1 | SRB | 10 µM, 48 h |  | growth percent | 105%
O=C(Nc1nnc2n3c(nc(-c4ccc(Cl)cc4)c1-2)SCC3=O)c1ccccc1 | SRB | 10 µM, NCI60 single-dose screen | baseline: untreated | cell growth | 83.8%
Cc1cc(C)n(C(=S)[S][Au][PH](CCCCCC[PH]([Au][S]C(=S)n2nc(C)cc2C)(c2ccccc2)c2ccccc2)(c2ccccc2)c2ccccc2)n1 | cell growth, NCI-60 screen | renal cancer |  | log10 TGI | > -4
O=c1ccn(Cc2cn(-c3c4ccccc4nc4ccccc34)nn2)c(=O)[nH]1 | NCI60 single-dose screen | 10 µM |  | growth percentage | 96.8%
Cn1cncc1C1=CN(c2ncnc3[nH]cnc23)CCS1 |  | renal cancer |  | TGI | 64.6 µM
O=C(Nc1nnc2n3c(Cc4ccccc4)n[nH]c3nc(-c3ccc(Cl)cc3)c1-2)c1ccccc1 | SRB | 10 µM, NCI60 single-dose screen | baseline: untreated | cell growth | 89.1%
CCCCN1CCN(c2ccc3[nH]c(-c4ccc5[nH]c(-c6ccc(C(F)(F)F)cc6)nc5c4)nc3c2)CC1 | SRB | 10 µM, 48 h |  | growth percent | -77.1%
O=C1NCCc2[nH]c(-c3ccncc3)cc21 | MTS | NCI60 panel |  | IC50 | > 10 µM
